Experimental data of several laboratories.
Compare with care: the assays were run in different laboratories. Several values in a cell are separate wells, animals, samples, runs or records.
Target: Receptor tyrosine-protein kinase erbB-2 (ERBB2, Homo sapiens, UniProt P04626)

| Structure (SMILES) | test | conditions | scale | measurement | value |
| --- | --- | --- | --- | --- | --- |
| C=CC(=O)N1CCCC(n2c(=O)c3ncccc3n(Cc3ccc(Oc4ccccc4)cc3)c2=O)C1 (stereo not shown) | cell-free assay, competition with immobilised ligand | 1 µM | – | remaining binding | 77% |
| CN1CCN(Cc2ccc(NC(=O)c3cccc(C#Cc4cnc(N)c5ncccc45)c3)cc2C(F)(F)F)CC1 | cell-free assay, competition with immobilised ligand | 0.5 µM | – | remaining binding | 2.1% |
| COc1ccc(C(=O)/C=C/c2ccccc2-c2c[nH]c3ccc(C#N)cc23)c(O)c1 | enzyme activity, inhibitor | 20 µM | – | inhibition | -16% |
| C=CC(=O)N1CCc2ccc(-n3c(=O)ccc4cnc5ccc(-c6cnn(C)c6)cc5c43)cc21 | KINOMEscan | 1 µM | baseline: DMSO control | remaining binding | 89% |
| Nc1ncc(-c2cc(-c3cnn(CC(F)(F)F)c3)ncc2F)nc1C(=O)NC1CNCC(F)C1 (stereo not shown) | enzyme activity | 1 µM | baseline: DMSO control | remaining activity | 90.3% |
| Cc1cccc(O[C@H]2CCC[C@@H](C(C)CNCc3ccncc3)C2)c1 (relative stereo) | enzyme activity, inhibitor | 1 µM | – | inhibition | -4% |
| CNC1C[S+]2CC[S+]3CC[S+](C1)[Ru-4]321([N]=C=S)[n]2c3ccc(OC)cc3c3c4c(c5cc(F)c[n+]1c5c32)C(=O)NC4=O (stereo not shown) | KinomeScan | 0.1 µM | baseline: untreated | remaining binding | 100% |
| COc1cc(OC)c(F)c(/C=C/c2cnc3ccn(S(=O)(=O)c4cn(CCF)cn4)c3n2)c1F | – | 1000 nM | – | inhibition | 2.5% |
| CC[C@H](C)[C@H](NC(=O)[C@H](CCCCNC(=O)CN(CCNC(=O)CN(CCNC(=O)CN(CCNC(=O)CN(CCNC(=O)[C@H](CCCNC(=N)N)NC(C)=O)C(=O)Cn1ccc(N)nc1=O)C(=O)Cn1cnc2c(=O)[nH]c(N)nc21)C(=O)Cn1cnc2c(=O)[nH]c(N)nc21)C(=O)Cn1ccc(N)nc1=O)NC(=O)[C@H](C)NC(=O)[C@H](CCCNC(=N)N)NC(=O)[C@H](CCCCN)NC(=O)[C@H](CCC(N)=O)NC(=O)[C@H](CCC(N)=O)NC(=O)[C@H](CC(N)=O)NC(=O)[C@@H](NC(=O)[C@H](CC(C)C)NC(=O)[C@H](CC(N)=O)NC(=O)[C@@H]1CCCN1C(=O)[C@H](CC(=O)O)NC(=O)[C@H](CC(C)C)NC(=O)[C@H](C)NC(=O)[C@H](CS)NC(=O)[C@H](CCCC(=O)NCCN(CC(=O)NCCN(CC(=O)NCCN(CC(=O)NCCN(CC(N)=O)C(=O)Cn1cnc2c(=O)[nH]c(N)nc21)C(=O)Cn1ccc(N)nc1=O)C(=O)Cn1ccc(N)nc1=O)C(=O)Cn1cnc2c(=O)[nH]c(N)nc21)NC(=O)[C@H](Cc1c[nH]c2ccccc12)NC(=O)[C@H](Cc1ccc(O)cc1)NC(=O)[C@H](CCCNC(=N)N)NC(=O)[C@H](CC(N)=O)NC(=O)[C@H](CCCNC(=N)N)NC(=O)[C@H](CC1CCCCC1)NC(=O)[C@H](CCC(=O)O)NC(=O)[C@H](CCCCN)NC(=O)[C@H](CO)NC(=O)[C@H](Cc1ccccc1)NC(C)=O)[C@@H](C)O)C(=O)N[C@@H](CCCNC(=N)N)C(=O)N[C@@H](CO)C(=O)N[C@H](C(=O)N[C@@H](Cc1ccc(O)cc1)C(=O)N[C@@H](CCC(=O)O)C(=O)N[C@@H](CCC(=O)O)C(N)=O)[C@@H](C)CC | binding, SPR | – | – | kon | 2.07e+06 M⁻¹ s⁻¹ |
| CC(C)=CC1OC(C)(C)C2C=C3C(=O)C(Cl)=CC(O)C3C3C(O)C4OC4C(=O)C132 (stereo not shown) | cell-free assay, competition with immobilised ligand | 10 µM | – | remaining binding | 80% |
| C=CC(=O)Nc1cccc(-c2cnc3[nH]cc(C(=O)NC(C)(C)C)c3n2)c1 | kinase activity | 0.1 µM | – | inhibition | -5% and -8% |
| COc1ccc(NC(=O)Nc2ccc3c(c2)C(=O)N(C(C)CO)CC(C)C(CN(C)Cc2ccc4c(c2)OCO4)O3)cc1 (stereo not shown) | binding, competition with immobilised ligand | 10 µM | – | remaining binding | 100% |
| NC(=O)C[C@H]1CCc2sc3ncnc(O[C@H]4CC[C@H](N5CCOCC5)CC4)c3c21 | enzyme activity, inhibitor | 10 µM | – | inhibition | -16% |
| COc1cc(Nc2nccc(-c3cnn4nc(OC)ccc34)n2)cc(C(F)(F)F)c1 | binding, competition with immobilised ligand | 1 µM | – | remaining binding | 91% |
| CC[C@H](C)[C@H](NC(=O)[C@H](CCCCN)NC(=O)[C@H](C)NC(=O)[C@H](CCCNC(=N)N)NC(=O)[C@H](CCCCN)NC(=O)[C@H](CCC(N)=O)NC(=O)[C@H](CCC(N)=O)NC(=O)[C@H](CC(N)=O)NC(=O)[C@@H](NC(=O)[C@H](CC(C)C)NC(=O)[C@H](CC(N)=O)NC(=O)[C@@H]1CCCN1C(=O)[C@H](CC(=O)O)NC(=O)[C@H](CC(C)C)NC(=O)[C@H](C)NC(=O)[C@H](C)NC(=O)[C@H](CCC(=O)O)NC(=O)[C@H](Cc1c[nH]c2ccccc12)NC(=O)[C@H](Cc1ccc(O)cc1)NC(=O)[C@H](CCCNC(=N)N)NC(=O)[C@H](CC(N)=O)NC(=O)[C@H](CCCNC(=N)N)NC(=O)[C@H](CCSC)NC(=O)[C@H](CCC(=O)O)NC(=O)[C@H](CCCCN)NC(=O)[C@H](CO)NC(=O)[C@H](Cc1ccccc1)NC(C)=O)[C@@H](C)O)C(=O)N[C@@H](CCCNC(=N)N)C(=O)N[C@@H](CO)C(=O)N[C@H](C(=O)N[C@@H](Cc1ccc(O)cc1)C(=O)N[C@@H](CCC(=O)O)C(=O)N[C@@H](CCC(=O)O)C(=O)NCC(=O)N[C@@H](CCC(=O)O)C(N)=O)[C@@H](C)CC | binding, SPR | 25 °C | – | dissociation rate constant | 0.0069 s⁻¹ |
| Cc1ccc(-c2c(/C=C(\C#N)C(=O)NC(C)C)n(CCCO)c3ncnc(N)c23)cc1 | cell-free assay, competition with immobilised ligand | 1 µM | – | remaining binding | 49% |
| C[C@H]1CN(C(=O)c2cn(-c3ccnc(N)n3)c3cc(C#CC4(O)CCCCC4)ccc23)CCN1 | enzyme activity, inhibitor, FRET | 1 µM | – | inhibition | -4% |
| CNC(=O)C1CCN(c2cc(C)c(F)cc2NC(=O)c2ccc(-c3cc(O)ccc3C)c(C)c2)CC1 | binding, competition with immobilised ligand | 1 µM | – | remaining binding | 100% |
| CCn1cc(C(=O)O)c(=O)c2c(N)c(F)c(NC3CCCCC3)cc21 | kinase activity | 0.1 µM, added: ATP at Km | – | inhibition | -0.1% |
| CC(=O)N1c2ccc(-c3ccc(CNC(=O)c4cn5cc(-c6cnc(N)nc6)nc(N6CCOCC6)c5n4)cc3)cc2CC[C@@H]1C | KINOMEscan | 10 µM | – | remaining binding | 91% |
| Nc1ncc2c(n1)-c1c([nH]c3ccc(C4=CCOCC4)cc13)CCC2 | binding, competition with immobilised ligand | 1 µM | – | remaining binding | 62% |
| CCCC[C@H](NC(=O)[C@H](CCC(=O)O)NC(=O)[C@H](CCCCN)NC(=O)[C@H](CO)NC(=O)[C@H](Cc1ccccc1)NC(C)=O)C(=O)N[C@@H](CCCNC(=N)N)C(=O)N[C@@H](CC(N)=O)C(=O)N[C@@H](CCCNC(=N)N)C(=O)N[C@@H](Cc1ccc(O)cc1)C(=O)N[C@@H](Cc1c[nH]c2ccccc12)C(=O)N[C@@H](CCCC(=O)NCCN(CC(=O)NCCN(CC(=O)NCCN(CC(=O)NCCN(CC(=O)N[C@@H](CCCNC(=N)N)C(N)=O)C(=O)Cn1cnc2c(=O)[nH]c(N)nc21)C(=O)Cn1ccc(N)nc1=O)C(=O)Cn1ccc(N)nc1=O)C(=O)Cn1cnc2c(=O)[nH]c(N)nc21)C(=O)N[C@@H](CS)C(=O)N[C@@H](C)C(=O)N[C@@H](CC(C)C)C(=O)N[C@@H](CC(=O)O)C(=O)N1CCC[C@H]1C(=O)N[C@@H](CC(N)=O)C(=O)N[C@@H](CC(C)C)C(=O)N[C@H](C(=O)N[C@@H](CC(N)=O)C(=O)N[C@@H](CCC(N)=O)C(=O)N[C@@H](CCC(N)=O)C(=O)N[C@@H](CCCCN)C(=O)N[C@@H](CCCNC(=N)N)C(=O)N[C@@H](C)C(=O)N[C@@H](CCCCNC(=O)CN(CCNC(=O)CN(CCNC(=O)CN(CCNC(=O)CN(CCNC(=O)[C@H](CCCNC(=N)N)NC(C)=O)C(=O)Cn1ccc(N)nc1=O)C(=O)Cn1cnc2c(=O)[nH]c(N)nc21)C(=O)Cn1cnc2c(=O)[nH]c(N)nc21)C(=O)Cn1ccc(N)nc1=O)C(=O)N[C@H](C(=O)N[C@@H](CCCNC(=N)N)C(=O)N[C@@H](CO)C(=O)N[C@H](C(=O)N[C@@H](Cc1ccc(O)cc1)C(=O)N[C@@H](CCC(=O)O)C(=O)N[C@@H](CCC(=O)O)C(=O)NCC(=O)N[C@@H](CCC(=O)O)C(N)=O)[C@@H](C)CC)[C@@H](C)CC)[C@@H](C)O | binding, affinity selection mass spectrometry | 1 h, 4 °C, unit not given | baseline: control-subtracted | enrichment | 3.95 |

Some of these lines once more:
| Structure (SMILES) | test | conditions | scale | measurement | value |
| --- | --- | --- | --- | --- | --- |
| CCCC[C@H](NC(=O)[C@H](CCC(=O)O)NC(=O)[C@H](CCCCN)NC(=O)[C@H](CO)NC(=O)[C@H](Cc1ccccc1)NC(C)=O)C(=O)N[C@@H](CCCNC(=N)N)C(=O)N[C@@H](CC(N)=O)C(=O)N[C@@H](CCCNC(=N)N)C(=O)N[C@@H](Cc1ccc(O)cc1)C(=O)N[C@@H](Cc1c[nH]c2ccccc12)C(=O)N[C@@H](CCCC(=O)NCCN(CC(=O)NCCN(CC(=O)NCCN(CC(=O)NCCN(CC(=O)N[C@@H](CCCNC(=N)N)C(N)=O)C(=O)Cn1cnc2c(=O)[nH]c(N)nc21)C(=O)Cn1ccc(N)nc1=O)C(=O)Cn1ccc(N)nc1=O)C(=O)Cn1cnc2c(=O)[nH]c(N)nc21)C(=O)N[C@@H](CS)C(=O)N[C@@H](C)C(=O)N[C@@H](CC(C)C)C(=O)N[C@@H](CC(=O)O)C(=O)N1CCC[C@H]1C(=O)N[C@@H](CC(N)=O)C(=O)N[C@@H](CC(C)C)C(=O)N[C@H](C(=O)N[C@@H](CC(N)=O)C(=O)N[C@@H](CCC(N)=O)C(=O)N[C@@H](CCC(N)=O)C(=O)N[C@@H](CCCCN)C(=O)N[C@@H](CCCNC(=N)N)C(=O)N[C@@H](C)C(=O)N[C@@H](CCCCNC(=O)CN(CCNC(=O)CN(CCNC(=O)CN(CCNC(=O)CN(CCNC(=O)[C@H](CCCNC(=N)N)NC(C)=O)C(=O)Cn1ccc(N)nc1=O)C(=O)Cn1cnc2c(=O)[nH]c(N)nc21)C(=O)Cn1cnc2c(=O)[nH]c(N)nc21)C(=O)Cn1ccc(N)nc1=O)C(=O)N[C@H](C(=O)N[C@@H](CCCNC(=N)N)C(=O)N[C@@H](CO)C(=O)N[C@H](C(=O)N[C@@H](Cc1ccc(O)cc1)C(=O)N[C@@H](CCC(=O)O)C(=O)N[C@@H](CCC(=O)O)C(=O)NCC(=O)N[C@@H](CCC(=O)O)C(N)=O)[C@@H](C)CC)[C@@H](C)CC)[C@@H](C)O | binding, affinity selection mass spectrometry | 1 h, 4 °C, unit not given | baseline: control-subtracted | enrichment | 3.95 |
